Experimental data pooled from the literature.
Numbers after ± are the reported error. The star is where a group is joined.
lasR: Transcriptional activator protein LasR (lasR, Pseudomonas aeruginosa, UniProt P25084)
OPRK1: Kappa-type opioid receptor (OPRK1, Homo sapiens, UniProt P41145)
UniProt P41145, sequence (whole entry, looked up): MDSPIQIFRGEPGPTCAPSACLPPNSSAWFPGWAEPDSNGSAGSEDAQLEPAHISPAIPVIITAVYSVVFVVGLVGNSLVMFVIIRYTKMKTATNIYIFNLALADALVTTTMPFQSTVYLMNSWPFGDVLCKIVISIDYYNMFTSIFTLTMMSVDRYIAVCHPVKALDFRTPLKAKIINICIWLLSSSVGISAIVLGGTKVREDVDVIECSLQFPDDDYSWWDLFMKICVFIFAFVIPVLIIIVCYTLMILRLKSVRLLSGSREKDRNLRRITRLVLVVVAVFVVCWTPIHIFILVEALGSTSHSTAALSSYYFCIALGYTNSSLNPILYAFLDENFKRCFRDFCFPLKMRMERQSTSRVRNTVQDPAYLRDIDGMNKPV
Kelch domain-containing protein 2: Kelch domain-containing protein 2 (UniProt Q9Y2U9)
UniProt Q9Y2U9, sequence (whole entry, looked up): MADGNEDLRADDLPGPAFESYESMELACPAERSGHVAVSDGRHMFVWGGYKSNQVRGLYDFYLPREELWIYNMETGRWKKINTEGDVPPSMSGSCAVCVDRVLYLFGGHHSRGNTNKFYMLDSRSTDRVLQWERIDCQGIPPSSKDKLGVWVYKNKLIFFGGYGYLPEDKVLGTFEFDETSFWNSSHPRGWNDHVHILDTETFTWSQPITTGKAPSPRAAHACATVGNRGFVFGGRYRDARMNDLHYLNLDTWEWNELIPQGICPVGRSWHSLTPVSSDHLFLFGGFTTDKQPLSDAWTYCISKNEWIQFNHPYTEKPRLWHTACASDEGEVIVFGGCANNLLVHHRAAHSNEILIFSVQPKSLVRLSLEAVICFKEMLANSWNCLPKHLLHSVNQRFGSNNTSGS
CNR2: Cannabinoid receptor 2 (CNR2, Homo sapiens, UniProt P34972)
UniProt P34972, sequence (whole entry, looked up): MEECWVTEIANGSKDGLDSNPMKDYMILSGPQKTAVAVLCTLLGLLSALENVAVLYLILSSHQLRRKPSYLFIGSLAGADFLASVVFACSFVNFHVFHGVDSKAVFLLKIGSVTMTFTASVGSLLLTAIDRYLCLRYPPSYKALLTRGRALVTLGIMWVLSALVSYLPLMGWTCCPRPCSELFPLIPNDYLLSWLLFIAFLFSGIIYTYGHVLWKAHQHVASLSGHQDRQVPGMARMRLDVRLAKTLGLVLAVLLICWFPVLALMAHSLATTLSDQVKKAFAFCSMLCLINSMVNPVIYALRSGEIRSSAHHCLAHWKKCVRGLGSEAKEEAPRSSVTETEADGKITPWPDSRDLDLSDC
ESR2: Estrogen receptor beta (ESR2, Homo sapiens, UniProt Q92731)
UniProt Q92731, sequence (whole entry, looked up): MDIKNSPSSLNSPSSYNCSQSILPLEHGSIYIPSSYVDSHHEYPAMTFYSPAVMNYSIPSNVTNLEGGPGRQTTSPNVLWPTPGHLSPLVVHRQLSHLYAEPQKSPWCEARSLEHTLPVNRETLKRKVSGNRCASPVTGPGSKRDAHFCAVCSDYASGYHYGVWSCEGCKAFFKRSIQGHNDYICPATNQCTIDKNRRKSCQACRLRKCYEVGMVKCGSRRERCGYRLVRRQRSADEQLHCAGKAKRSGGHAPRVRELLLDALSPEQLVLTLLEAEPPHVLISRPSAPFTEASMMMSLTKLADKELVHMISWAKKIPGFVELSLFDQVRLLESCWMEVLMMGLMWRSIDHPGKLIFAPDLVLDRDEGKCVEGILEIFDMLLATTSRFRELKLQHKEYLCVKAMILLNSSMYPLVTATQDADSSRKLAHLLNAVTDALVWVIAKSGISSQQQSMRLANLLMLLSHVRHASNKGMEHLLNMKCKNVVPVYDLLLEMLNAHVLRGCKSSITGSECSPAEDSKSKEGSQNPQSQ
UniProt P03962, sequence (whole entry, unmodified, looked up): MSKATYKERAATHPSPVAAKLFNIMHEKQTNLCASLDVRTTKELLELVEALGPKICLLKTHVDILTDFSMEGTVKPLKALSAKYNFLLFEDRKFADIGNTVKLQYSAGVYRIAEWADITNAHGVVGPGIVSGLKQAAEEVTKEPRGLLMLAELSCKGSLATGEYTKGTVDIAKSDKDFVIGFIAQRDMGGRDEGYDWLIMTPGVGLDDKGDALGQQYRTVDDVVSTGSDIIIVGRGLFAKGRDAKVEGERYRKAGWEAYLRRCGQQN
UniProt P07164, sequence (whole entry, unmodified, looked up): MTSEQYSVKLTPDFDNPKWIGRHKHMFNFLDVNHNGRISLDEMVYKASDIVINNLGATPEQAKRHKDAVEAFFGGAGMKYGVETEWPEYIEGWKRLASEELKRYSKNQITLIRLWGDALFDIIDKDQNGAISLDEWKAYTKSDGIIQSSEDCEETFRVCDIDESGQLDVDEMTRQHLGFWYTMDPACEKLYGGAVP
UniProt P0AFU8, sequence (whole entry, looked up): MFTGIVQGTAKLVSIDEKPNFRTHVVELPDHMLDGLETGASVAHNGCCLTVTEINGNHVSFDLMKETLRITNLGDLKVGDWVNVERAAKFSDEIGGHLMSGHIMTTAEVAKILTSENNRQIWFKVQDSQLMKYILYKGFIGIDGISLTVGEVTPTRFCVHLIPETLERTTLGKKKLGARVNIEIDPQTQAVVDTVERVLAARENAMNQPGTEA
UniProt P14902, sequence (whole entry, looked up): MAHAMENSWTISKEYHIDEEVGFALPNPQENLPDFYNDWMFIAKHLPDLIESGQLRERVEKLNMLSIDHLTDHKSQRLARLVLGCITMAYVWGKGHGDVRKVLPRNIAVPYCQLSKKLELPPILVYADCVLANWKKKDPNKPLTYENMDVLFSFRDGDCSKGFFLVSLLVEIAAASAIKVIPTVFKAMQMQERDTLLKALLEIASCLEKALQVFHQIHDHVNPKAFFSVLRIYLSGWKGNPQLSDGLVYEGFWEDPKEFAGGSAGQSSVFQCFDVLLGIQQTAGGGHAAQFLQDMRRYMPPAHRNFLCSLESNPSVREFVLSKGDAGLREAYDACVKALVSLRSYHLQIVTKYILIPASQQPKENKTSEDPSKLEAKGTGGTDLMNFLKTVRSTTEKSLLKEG
UniProt Q13009, sequence (whole entry, looked up): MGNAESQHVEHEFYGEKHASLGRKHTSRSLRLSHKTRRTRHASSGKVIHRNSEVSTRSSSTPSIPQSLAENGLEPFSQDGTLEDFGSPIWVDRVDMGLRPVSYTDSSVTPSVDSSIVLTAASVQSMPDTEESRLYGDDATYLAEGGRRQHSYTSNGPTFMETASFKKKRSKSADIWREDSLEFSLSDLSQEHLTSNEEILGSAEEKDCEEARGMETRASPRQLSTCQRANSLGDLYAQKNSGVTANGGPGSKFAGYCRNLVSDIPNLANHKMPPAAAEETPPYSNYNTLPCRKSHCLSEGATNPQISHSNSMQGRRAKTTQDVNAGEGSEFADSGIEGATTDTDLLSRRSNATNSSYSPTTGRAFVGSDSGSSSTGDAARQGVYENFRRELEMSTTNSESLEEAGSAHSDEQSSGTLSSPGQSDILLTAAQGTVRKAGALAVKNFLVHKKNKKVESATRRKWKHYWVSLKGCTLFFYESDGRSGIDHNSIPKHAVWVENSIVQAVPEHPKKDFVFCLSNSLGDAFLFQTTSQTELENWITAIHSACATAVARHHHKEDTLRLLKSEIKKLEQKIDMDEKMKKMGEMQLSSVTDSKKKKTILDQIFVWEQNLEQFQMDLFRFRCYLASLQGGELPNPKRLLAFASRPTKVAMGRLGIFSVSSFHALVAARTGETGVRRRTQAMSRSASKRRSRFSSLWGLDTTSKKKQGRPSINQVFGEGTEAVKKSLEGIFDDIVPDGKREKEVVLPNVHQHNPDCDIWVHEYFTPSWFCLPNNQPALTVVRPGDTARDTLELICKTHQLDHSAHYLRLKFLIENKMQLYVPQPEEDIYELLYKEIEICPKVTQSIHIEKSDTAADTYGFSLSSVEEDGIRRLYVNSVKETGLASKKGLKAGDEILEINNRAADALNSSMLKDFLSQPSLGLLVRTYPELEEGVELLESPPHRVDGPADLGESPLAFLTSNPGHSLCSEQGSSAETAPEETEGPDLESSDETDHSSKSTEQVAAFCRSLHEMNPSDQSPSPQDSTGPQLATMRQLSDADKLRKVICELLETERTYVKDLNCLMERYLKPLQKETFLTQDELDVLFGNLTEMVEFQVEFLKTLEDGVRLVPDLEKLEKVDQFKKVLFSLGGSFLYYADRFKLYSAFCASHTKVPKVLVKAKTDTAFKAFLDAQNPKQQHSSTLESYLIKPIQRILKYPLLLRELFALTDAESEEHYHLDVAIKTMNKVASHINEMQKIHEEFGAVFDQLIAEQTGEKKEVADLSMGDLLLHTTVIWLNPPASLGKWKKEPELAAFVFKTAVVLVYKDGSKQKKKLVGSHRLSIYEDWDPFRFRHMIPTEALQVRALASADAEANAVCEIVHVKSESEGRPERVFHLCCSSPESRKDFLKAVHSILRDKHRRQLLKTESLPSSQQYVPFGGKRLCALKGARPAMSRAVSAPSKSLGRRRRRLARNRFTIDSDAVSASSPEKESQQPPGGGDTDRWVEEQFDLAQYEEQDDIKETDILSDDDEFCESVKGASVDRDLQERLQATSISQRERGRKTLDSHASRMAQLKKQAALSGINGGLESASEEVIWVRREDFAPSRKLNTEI
UniProt P69905, sequence (whole entry, looked up): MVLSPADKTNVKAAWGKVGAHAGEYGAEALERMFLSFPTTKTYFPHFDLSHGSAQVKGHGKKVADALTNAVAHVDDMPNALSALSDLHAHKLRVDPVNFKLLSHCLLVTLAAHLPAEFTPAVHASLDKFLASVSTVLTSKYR
UniProt P08913, sequence (whole entry, looked up): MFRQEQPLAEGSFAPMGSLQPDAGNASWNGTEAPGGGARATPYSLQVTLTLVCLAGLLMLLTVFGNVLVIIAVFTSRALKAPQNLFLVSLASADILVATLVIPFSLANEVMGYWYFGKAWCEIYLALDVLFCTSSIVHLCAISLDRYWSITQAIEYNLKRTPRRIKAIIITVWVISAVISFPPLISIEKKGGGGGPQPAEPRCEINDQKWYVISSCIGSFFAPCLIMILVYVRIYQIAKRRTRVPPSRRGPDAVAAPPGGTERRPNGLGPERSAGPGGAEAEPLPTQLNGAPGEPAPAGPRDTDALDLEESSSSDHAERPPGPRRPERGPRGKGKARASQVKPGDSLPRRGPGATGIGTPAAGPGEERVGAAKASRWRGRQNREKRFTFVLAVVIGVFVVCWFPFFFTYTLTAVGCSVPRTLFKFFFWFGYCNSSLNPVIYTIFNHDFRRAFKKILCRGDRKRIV

CSc1ccc(Nc2ccc3c(c2)C(c2ccccc2F)=NC(C)C(=O)N3)cc1 (centres unmarked)
inhibition (ADRA2A (Homo sapiens, UniProt P08913); ligand displacement, radioligand; 10 µM): 65%

O=C(CCc1cc2ccccc2[nH]1)NC1CCSC1=O (centres unmarked)
activation (lasR; reporter gene, agonist; PAO1 MW1 pUM15; 10 µM, with: OdDHL): > 20%

NCCCC(=O)O
fluorination plot slope (Drosophila RDL receptor residue 254; log EC50 vs cation-π binding): -0.11

CC(C)[C@@H](CN1CCN(c2cccc(O)c2)[C@@H](C)C1)NC(=O)c1ccc(Oc2ccccc2)cc1
Ke (OPRK1; antagonist; CHO; with: U69593): 0.85 ± 0.35 nM

Oc1ccccc1-c1c(Cl)cc(Cl)cc1Cl
detection limit (Aequorin-1 (Aequorea victoria, UniProt P07164, C152S/C159S/C187S); aequorin bioluminescence, inhibitor; 2 h, with: coelenterazine): 34 µM

C[C@H](NC(=O)[C@H](Cc1ccccc1)NC(=O)[C@H](Cc1ccc(O)cc1)NC(=O)[C@H](CCC(=O)O)NC(=O)[C@H](CCCCN)NC(=O)[C@H](CCC(N)=O)NC(=O)[C@H](CC(N)=O)NC(=O)[C@H](CCC(=O)O)NS(=O)(=O)c1cccc2c(N(C)C)cccc12)C(=O)O
binding affinity fold change (Rho guanine nucleotide exchange factor TIAM1, PDZ domain (TIAM1, Homo sapiens, UniProt Q13009); fluorescence anisotropy; concentration not given, dansylated peptide; reference: model peptide Kd over peptide Kd): 1.7

Nc1ncnc2c1ncn2[C@@H]1O[C@H](COP(=O)(O)OP(=O)(O)OP(=O)(O)O)[C@@H](O)[C@H]1O
fluorescence ratio (matB (Rhodopseudomonas palustris, UniProt Q6ND88, C106A/K488A/Q457C/R286C); nucleotide binding; 0.5 µM protein, pH 7.0, 20 °C, 10 mM MgCl2; reference: saturating ligand over no ligand): 3.9 ± 0.2

RYRHPTRMYY
kcat (PIM1 (Homo sapiens, UniProt P11309); substrate, coupled enzyme; peptide; pH 7.4, room temperature, with: 1 mM ATP, 20 mM MgCl2): 7.5 ± 0.1 s⁻¹

O=c1[nH]c(/C=C/C2C=Nc3ccccc32)c([N+](=O)[O-])c(=O)[nH]1 (centres unmarked)
Ks (Riboflavin synthase (ribC, Escherichia coli, UniProt P0AFU8); enzyme activity, substrate; Escherichia coli, recombinant riboflavin synthase; pH 7.0): 2.3 ± 0.1 µM

IDVRVPEQYQQEHVQGA
fraction of protein bound (Kelch domain-containing protein 2; native mass spectrometry; peptide, 200 mM ammonium acetate; 20 µM Kelch domain-containing protein 2, pH 7; reference: total Kelch domain-containing protein 2 signal): 0.8%

CC1(C)Oc2cc([C@]34CC5CC(C[C@@](N=[N+]=[N-])(C5)C3)C4)cc(O)c2[C@@H]2C[C@H](O)CC[C@H]21
covalent labeling (Cnr1 (Rattus norvegicus, UniProt P20272); radioligand binding Bmax reduction; rat brain membranes; 10-fold Ki, with: [3H]CP-55,940; reference: untreated): 61%

CC(C)(NC(=O)c1nn(Cc2ccc(F)cc2)c2ccccc12)C1CCCN(C(N)=O)C1 (centres unmarked)
Emax (CNR2; calcium mobilization, agonist; CHO-K1 expressing Gαq16; reference: CP55,940 maximum): 37 ± 3%

O=c1[nH]c(=O)n([C@@H]2O[C@H](COP(=O)(O)O)[C@@H](O)[C@H]2O)cc1F
rate constant ratio (Orotidine 5'-phosphate decarboxylase (Saccharomyces cerevisiae S288c, UniProt P03962, A160S/C155S/N267D/S2H); C6 deuterium exchange; basic enzyme form, with: saturating enzyme-bound substrate; reference: compound over UMP): 3400 fold

COP(=O)(OC)OCc1ccc(C=O)o1
peak modification (Hemoglobin subunit alpha, with beta chain (HBA1, Homo sapiens, UniProt P69905); refers to: haemoglobin A adduct; human normal whole blood; 2 mM, 24 h, hematocrit 30%): 12.7%

AWSHPQFEKGGGSGGGSGG
fraction of protein bound (Kelch domain-containing protein 2; native mass spectrometry; peptide, 200 mM ammonium acetate; 20 µM Kelch domain-containing protein 2, pH 7; reference: total Kelch domain-containing protein 2 signal): 0.8%

Nc1nnc(S)s1
remaining activity (Peptide deformylase (def, Escherichia coli, UniProt P0A6K3); 500 µM, over 2 days, pH 7.0, stock in 50 mM potassium phosphate; reference: control): 103%

Ac-QDEVD-pNA (N-acetyl, C-pNA; pNA = O=[N+]([O-])c1ccc(N*)cc1)
kcat/Km (Caspase-3 (CASP3, Homo sapiens, UniProt P42574); substrate hydrolysis, substrate, colorimetric; pH 7.5): 18300 ± 1670 M⁻¹ s⁻¹

O=[PH](O)O
(kcat/Km)/Kd (Orotidine 5'-phosphate decarboxylase (Saccharomyces cerevisiae S288c, UniProt P03962, D37G); activated decarboxylation of FO, activator; pH 7.0, 25 °C, upper limit, ionic strength 0.15): 0.0007 ± 0.00012 M⁻² s⁻¹

CCCCN(CCCC)CC(O)c1cc(Cl)cc2c1-c1ccc(Cl)cc1/C2=C/c1ccc(Cl)cc1 (centres unmarked)
inhibition of binding (CRT (Plasmodium falciparum, UniProt W7FI62); scintillation proximity; nanodiscs; 10 µM, with: [3H]-chloroquine and [3H]-piperaquine): no inhibition

cyclo(GLWFGPRL) (cyclic)
antagonist activity (diapause hormone receptor (Helicoverpa zea, UniProt S5LVZ5); receptor activation, antagonist, aequorin luminescence; CHO-K1 expressing receptor; 1 µM, 30 min preincubation, with: model ligand at 1 µM; reference: model ligand alone): 18.5%

CC(C)(NC(=O)c1nn(CC2CCOCC2)c2ccccc12)c1cccc(C(N)=O)c1
Emax (CNR2; calcium mobilization, agonist; CHO-K1 expressing Gαq16; reference: CP55,940 maximum): 57 ± 3%

Oc1ccc(-c2ccc(-c3ccc(O)cc3)[se]2)cc1
efficacy (ESR2; antagonist; HEK293T; highest tested concentration, 24 h, with: estradiol 10 nM; reference: estradiol alone): 35 ± 4%

C[C@H](C(=O)NCCc1ccc(O)cc1)c1cccc(C(=O)c2ccccc2)c1
luciferase inhibition (Luciferin 4-monooxygenase (Photinus pyralis, UniProt P08659); enzyme activity, counter-; C3H10T1/2 cell lysate; concentration not given): no effect

CCN(C)C(=O)Oc1cccc([C@H](C)N(C)C)c1
remaining activity (CES1 (Homo sapiens, UniProt P23141); irreversible inhibitor; 5× IC50 or 200 µM, 1 h, preincubation then inhibitor removal, with: o-nitrophenyl acetate substrate): 78.8%

Cc1cc(O)ccc1-c1ccc(-c2ccc(O)cc2C)[se]1
efficacy (Estrogen receptor (ESR1, Homo sapiens, UniProt P03372); antagonist; HEK293T; highest tested concentration, with: estradiol 10 nM; reference: estradiol alone): 96 ± 13%

CCc1c2c(nc3ccc(O)cc13)-c1cc3c(c(=O)n1C2)COC(=O)[C@]3(O)CC
Vmax (UGT1A9 (Homo sapiens, UniProt O60656); substrate; pH 7.4, 37 °C): 73.1 pmol/mg/min

Cc1cc(-c2c[se]cc2-c2ccc(O)c(C)c2)ccc1O
efficacy (ESR2; antagonist; HEK293T; highest tested concentration, 24 h, with: estradiol 10 nM; reference: estradiol alone): 50 ± 5%

GGNWTT
kcat/Km (UDP-glucose:protein N-beta-glucosyltransferase (Actinobacillus pleuropneumoniae serotype 5b, UniProt A3N2T3, D215R/Q469A); substrate; peptide; 15 min, pH 8.0, 37 °C, D215R mutant, with: UDP-Glc 100 mM): 30 M⁻¹ s⁻¹

YFFDRSS (cyclic, disulfide)
binding titer (HIV-1 neutralising antibody 4E10; phage binding, M13 phage ELISA; peptide; concentration not given; lower = stronger binding): 2.2e+07 M13/mL

CCCCCc1cc(O)c(C/C=C(\C)CCC=C(C)C)c(O)c1
lowest effective concentration (SCN9A (Homo sapiens, UniProt Q15858); open-state fast inactivation shift, automated patch clamp; reference: vehicle): 15 µM

COc1cccc(Oc2ccc(C(=O)N[C@H](CN3CCN(c4cccc(O)c4)[C@@H](C)C3)C(C)C)cc2)c1
Ke (OPRK1; antagonist; CHO; with: U69593): 0.63 ± 0.13 nM

NS(=O)(=O)OC[C@@H]1C[C@@H](n2ccc3c(N[C@H]4CCc5ccccc54)ncnc32)C[C@@H]1O
IDO1 degradation (IDO1 (Homo sapiens, UniProt P14902); inhibitor, western blot; HeLa; 1 µM, 2 h pretreatment, then 24 h, with: IFN-γ 5 ng/mL plus degrader 5 µM): inhibited

O=C(O)c1ccccc1-c1cccnc1
ΔTm (pqsE (Pseudomonas aeruginosa, UniProt P20581); thermal stability, DSF): 8.7 °C

Oc1ccc(F)c(-c2ccc(-c3cc(O)ccc3F)[se]2)c1
efficacy (ESR2; antagonist; HEK293T; highest tested concentration, 24 h, with: estradiol 10 nM; reference: estradiol alone): 89 ± 6%

O=C(Cc1cccc(Cl)c1)NC1CCOC1=O (centres unmarked)
activation (lasR; reporter gene, agonist; Escherichia coli JLD271/pJN105L/pSC11; 100 µM; reference: OdDHL 100 µM): 30%

For quick reference, copied from above:
CCN(C)C(=O)Oc1cccc([C@H](C)N(C)C)c1
remaining activity (CES1 (Homo sapiens, UniProt P23141); irreversible inhibitor; 5× IC50 or 200 µM, 1 h, preincubation then inhibitor removal, with: o-nitrophenyl acetate substrate): 78.8%

Nc1ncnc2c1ncn2[C@@H]1O[C@H](COP(=O)(O)OP(=O)(O)OP(=O)(O)O)[C@@H](O)[C@H]1O
fluorescence ratio (matB (Rhodopseudomonas palustris, UniProt Q6ND88, C106A/K488A/Q457C/R286C); nucleotide binding; 0.5 µM protein, pH 7.0, 20 °C, 10 mM MgCl2; reference: saturating ligand over no ligand): 3.9 ± 0.2

CC1(C)Oc2cc([C@]34CC5CC(C[C@@](N=[N+]=[N-])(C5)C3)C4)cc(O)c2[C@@H]2C[C@H](O)CC[C@H]21
covalent labeling (Cnr1 (Rattus norvegicus, UniProt P20272); radioligand binding Bmax reduction; rat brain membranes; 10-fold Ki, with: [3H]CP-55,940; reference: untreated): 61%
